{"data": "Results of several laboratories", "note": "Each line is one published result; not all experiments were run side by side. “And” joins repeats or separate records; there may be more than shown. ± marks the error that the study gave.", "sequence of UniProt P27448 (whole entry, looked up)": "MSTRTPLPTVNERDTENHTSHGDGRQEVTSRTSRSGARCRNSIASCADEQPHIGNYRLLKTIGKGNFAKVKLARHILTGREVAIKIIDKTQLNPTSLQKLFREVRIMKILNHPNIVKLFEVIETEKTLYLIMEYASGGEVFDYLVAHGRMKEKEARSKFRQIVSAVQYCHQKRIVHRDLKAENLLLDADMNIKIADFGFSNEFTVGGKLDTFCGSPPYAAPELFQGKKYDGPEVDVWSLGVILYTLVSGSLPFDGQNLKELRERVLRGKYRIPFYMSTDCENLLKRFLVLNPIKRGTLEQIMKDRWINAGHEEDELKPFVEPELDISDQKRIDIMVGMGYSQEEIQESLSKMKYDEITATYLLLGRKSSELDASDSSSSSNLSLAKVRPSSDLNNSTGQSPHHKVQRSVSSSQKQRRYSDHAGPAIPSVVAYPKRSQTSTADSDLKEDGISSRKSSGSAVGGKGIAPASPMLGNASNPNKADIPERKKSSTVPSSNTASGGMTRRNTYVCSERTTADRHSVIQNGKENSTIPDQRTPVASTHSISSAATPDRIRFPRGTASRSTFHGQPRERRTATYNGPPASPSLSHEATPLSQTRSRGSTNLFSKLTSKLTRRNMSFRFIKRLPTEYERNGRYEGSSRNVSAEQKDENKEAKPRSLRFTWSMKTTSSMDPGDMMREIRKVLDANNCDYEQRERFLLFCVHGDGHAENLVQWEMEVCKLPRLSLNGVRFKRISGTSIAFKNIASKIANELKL", "sequence of UniProt Q6PHR2 (whole entry, looked up)": "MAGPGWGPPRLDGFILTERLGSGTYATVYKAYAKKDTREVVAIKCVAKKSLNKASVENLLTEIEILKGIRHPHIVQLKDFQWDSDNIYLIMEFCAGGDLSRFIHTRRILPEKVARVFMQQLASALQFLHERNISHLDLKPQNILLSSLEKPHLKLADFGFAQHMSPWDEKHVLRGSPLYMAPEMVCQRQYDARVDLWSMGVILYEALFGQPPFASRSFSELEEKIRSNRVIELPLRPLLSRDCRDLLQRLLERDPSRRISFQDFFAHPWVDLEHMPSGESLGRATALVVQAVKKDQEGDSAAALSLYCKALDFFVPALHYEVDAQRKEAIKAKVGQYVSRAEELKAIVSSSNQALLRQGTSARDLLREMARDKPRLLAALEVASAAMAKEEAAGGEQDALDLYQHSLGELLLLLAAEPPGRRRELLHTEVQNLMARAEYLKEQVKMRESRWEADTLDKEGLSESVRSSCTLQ", "sequence of UniProt P28564 (whole entry, looked up)": "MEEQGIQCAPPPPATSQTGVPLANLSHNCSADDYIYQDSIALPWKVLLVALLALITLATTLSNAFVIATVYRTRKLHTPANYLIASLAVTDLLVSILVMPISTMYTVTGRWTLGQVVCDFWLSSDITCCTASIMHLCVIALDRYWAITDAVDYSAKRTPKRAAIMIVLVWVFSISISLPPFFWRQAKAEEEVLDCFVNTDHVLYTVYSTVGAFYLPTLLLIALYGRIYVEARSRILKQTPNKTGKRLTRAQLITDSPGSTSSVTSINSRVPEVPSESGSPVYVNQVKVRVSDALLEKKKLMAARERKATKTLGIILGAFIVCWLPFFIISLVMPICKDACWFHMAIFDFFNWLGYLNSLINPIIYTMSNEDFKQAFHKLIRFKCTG", "sequence of UniProt Q04759 (whole entry, looked up)": "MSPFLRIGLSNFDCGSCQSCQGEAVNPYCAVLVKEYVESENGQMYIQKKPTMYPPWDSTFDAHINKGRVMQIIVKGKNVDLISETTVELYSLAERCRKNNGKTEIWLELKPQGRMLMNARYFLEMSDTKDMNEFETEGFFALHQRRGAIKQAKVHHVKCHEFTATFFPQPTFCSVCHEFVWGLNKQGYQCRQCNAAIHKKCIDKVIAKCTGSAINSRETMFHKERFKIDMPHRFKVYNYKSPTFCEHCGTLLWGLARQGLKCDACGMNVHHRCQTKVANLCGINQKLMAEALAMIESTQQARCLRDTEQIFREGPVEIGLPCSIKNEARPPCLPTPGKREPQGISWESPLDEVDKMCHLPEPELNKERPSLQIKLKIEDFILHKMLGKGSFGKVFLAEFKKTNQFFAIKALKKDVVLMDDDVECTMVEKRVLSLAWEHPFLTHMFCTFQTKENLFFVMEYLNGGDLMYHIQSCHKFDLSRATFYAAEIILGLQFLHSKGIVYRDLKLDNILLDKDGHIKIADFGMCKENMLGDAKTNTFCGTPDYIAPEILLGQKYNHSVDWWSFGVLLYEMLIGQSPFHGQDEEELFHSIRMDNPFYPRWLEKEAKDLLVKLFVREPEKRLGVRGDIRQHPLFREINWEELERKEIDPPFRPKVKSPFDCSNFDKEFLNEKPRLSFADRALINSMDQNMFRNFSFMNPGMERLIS", "sequence of UniProt P17948 (whole entry, looked up)": "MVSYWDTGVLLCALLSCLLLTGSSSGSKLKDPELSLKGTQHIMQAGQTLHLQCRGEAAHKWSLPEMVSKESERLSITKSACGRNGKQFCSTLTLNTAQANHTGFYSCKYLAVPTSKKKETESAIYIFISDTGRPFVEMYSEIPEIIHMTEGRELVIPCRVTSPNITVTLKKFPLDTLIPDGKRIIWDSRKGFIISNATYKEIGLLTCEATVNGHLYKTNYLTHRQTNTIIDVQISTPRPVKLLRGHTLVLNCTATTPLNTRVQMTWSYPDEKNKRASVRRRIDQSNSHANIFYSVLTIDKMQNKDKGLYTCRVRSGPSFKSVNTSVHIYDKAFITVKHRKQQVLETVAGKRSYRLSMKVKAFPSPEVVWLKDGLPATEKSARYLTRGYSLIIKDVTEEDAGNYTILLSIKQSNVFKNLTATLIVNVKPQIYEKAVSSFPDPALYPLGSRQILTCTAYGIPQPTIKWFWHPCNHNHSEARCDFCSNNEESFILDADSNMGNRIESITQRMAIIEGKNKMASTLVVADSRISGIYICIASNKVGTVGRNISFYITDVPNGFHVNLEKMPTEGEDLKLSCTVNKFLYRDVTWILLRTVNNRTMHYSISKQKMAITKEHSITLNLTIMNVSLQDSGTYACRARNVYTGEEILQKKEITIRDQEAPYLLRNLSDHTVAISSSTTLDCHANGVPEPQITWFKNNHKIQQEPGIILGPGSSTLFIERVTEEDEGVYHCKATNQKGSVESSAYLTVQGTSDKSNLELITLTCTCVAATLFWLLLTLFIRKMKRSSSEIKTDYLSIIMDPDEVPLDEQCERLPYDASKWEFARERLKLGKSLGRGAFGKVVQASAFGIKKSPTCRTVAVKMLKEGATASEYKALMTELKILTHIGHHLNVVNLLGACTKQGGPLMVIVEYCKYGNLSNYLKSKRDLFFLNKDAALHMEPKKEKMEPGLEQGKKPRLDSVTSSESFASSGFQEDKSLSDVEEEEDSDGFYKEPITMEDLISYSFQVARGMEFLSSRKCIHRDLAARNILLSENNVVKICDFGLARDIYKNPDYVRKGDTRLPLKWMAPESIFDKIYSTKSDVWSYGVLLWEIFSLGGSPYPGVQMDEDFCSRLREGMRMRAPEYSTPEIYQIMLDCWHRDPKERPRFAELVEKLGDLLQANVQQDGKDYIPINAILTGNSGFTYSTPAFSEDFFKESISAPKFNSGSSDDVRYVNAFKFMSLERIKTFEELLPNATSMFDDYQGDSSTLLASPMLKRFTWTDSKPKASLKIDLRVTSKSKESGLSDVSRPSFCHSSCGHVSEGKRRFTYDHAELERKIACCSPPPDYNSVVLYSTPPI", "sequence of UniProt Q9BZL6 (whole entry, looked up)": "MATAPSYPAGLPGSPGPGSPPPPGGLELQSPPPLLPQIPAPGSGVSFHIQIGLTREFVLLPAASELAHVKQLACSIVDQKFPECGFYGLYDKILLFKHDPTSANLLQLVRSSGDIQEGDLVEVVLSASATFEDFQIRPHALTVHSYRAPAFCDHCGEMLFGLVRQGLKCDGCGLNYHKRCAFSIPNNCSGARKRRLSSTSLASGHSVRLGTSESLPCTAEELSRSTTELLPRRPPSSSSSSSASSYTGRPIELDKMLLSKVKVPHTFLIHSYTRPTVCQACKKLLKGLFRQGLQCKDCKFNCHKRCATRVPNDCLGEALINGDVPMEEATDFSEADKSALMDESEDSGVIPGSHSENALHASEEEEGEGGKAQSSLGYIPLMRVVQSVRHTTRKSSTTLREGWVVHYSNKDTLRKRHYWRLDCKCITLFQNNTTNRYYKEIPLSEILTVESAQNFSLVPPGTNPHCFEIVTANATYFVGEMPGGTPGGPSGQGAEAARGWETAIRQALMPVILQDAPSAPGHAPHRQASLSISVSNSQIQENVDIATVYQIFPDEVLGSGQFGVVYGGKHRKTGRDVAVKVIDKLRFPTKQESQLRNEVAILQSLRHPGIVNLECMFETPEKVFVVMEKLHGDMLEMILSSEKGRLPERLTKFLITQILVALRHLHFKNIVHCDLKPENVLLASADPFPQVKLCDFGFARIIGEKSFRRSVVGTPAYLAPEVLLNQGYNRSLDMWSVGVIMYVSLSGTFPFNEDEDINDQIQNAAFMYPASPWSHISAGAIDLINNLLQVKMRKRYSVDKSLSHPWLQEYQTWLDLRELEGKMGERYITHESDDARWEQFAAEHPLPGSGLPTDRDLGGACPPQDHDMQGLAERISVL"}
{"Compound": "Cc1ccc(OCCN(C)C)cc1C(=O)N[C@H](C)c1cc(-c2ccc(C(F)(F)F)s2)nc2ccccc12", "target or system": "Vero E6", "setting": "125 µM", "endpoint": "viability", "result": "0.636% and -1.69%"}
{"Compound": "Nc1ccc(/C=C/C(=O)N2CCc3c(oc4c(-c5ccc(F)cc5)cc(-c5ccc(C(=O)N6CCC(F)(F)CC6)cn5)cc34)C2)cn1", "target or system": "MARK3 (Homo sapiens, UniProt P27448)", "test": "binding, competition with immobilised ligand", "setting": "1 µM", "endpoint": "remaining binding", "result": "99%"}
{"Compound": "CC(C)[C@H]1NC(=O)C[C@H]2/C=C/CCSSC[C@@H](NC1=O)C(=O)N[C@H](Cc1cccc3ccccc13)C(=O)NCC(=O)O2", "target or system": "FLT1 (Homo sapiens, UniProt P17948)", "test": "enzyme activity, inhibitor", "setting": "10 µM", "endpoint": "inhibition", "result": "2.3%"}
{"Compound": "CC(C)CC(C(=O)N1CC2(CC1C#N)C(=O)Nc1ccccc12)N(C)C(=O)c1cc2c(F)cc(F)c(F)c2[nH]1 (centres unmarked)", "target or system": "Replicase polyprotein 1ab, main protease (rep, Porcine epidemic diarrhea virus, UniProt P0C6Y4)", "test": "protease activity, inhibitor", "setting": "0.32 µM", "endpoint": "remaining activity", "result": "86.2%"}
{"Compound": "CCOCC1C(c2ccc(Cl)c(Cl)c2)CC2CCC1N2C (centres unmarked)", "target or system": "SLC6A3 (Homo sapiens, UniProt Q01959)", "test": "dopamine uptake", "setting": "1e-05 µM, 0.03333 h, added: [3H]dopamine", "scale": "reference: no inhibitor", "endpoint": "remaining activity", "result": "109%"}
{"Compound": "CS(C)(=O)=Nc1ccc(-c2ccc(-c3nc4cc(O[C@@H]5CO[C@H]6[C@@H]5OC[C@H]6O)[nH]c4cc3F)cc2)cc1", "target or system": "PRKCQ (Homo sapiens, UniProt Q04759)", "test": "enzyme activity, inhibitor", "setting": "10 µM", "endpoint": "inhibition", "result": "14%"}
{"Compound": "CN(C)[C@H]1C[C@@]23CC[C@@]4(O2)C(=CC[C@]2(C)[C@@H](c5ccc6ccncc6c5)CC[C@H]24)C=C3[C@@H](O)[C@@H]1O", "target or system": "PRKD2 (Homo sapiens, UniProt Q9BZL6)", "test": "ATP probe labelling, inhibitor, KiNativ profiling", "setting": "1 µM", "endpoint": "inhibition", "result": "-4.9%"}
{"Compound": "CCn1ccc(-c2cc([C@@H](C)NC(=O)c3cc(OC[C@@H]4CCCN4C)ccc3C)c3ccccc3n2)n1", "target or system": "Vero E6", "setting": "250 µM", "endpoint": "viability", "result": "3.82% and 3.1% and 1.67%"}
{"Compound": "O=C1NC(=O)c2c1c1cc(F)c[n+]3c1c1c2c2cc(O)ccc2[n]1[Ru-4]312([N]=C=S)[S+]3CC[S+]1CC[S+]2CC3 (centres unmarked)", "target or system": "ULK3 (Homo sapiens, UniProt Q6PHR2)", "test": "enzyme activity", "setting": "100 nM, human enzyme, added: 10 µM ATP", "scale": "reference: untreated", "endpoint": "remaining activity", "result": "83%"}
{"Compound": "O=C1NC2(CC2)COc2ncc(F)cc2[C@H]2COCCN2c2ccn3ncc1c3n2", "test system": "Sprague-Dawley rat, female, liver", "setting": "oral, 2.5 mg/kg/day, 4 weeks, end of treatment", "endpoint": "organ-to-body weight ratio", "result": "3.52 ± 0.243%"}
{"Compound": "Cc1sc2c(c1C)C(c1ccc(Cl)cc1)=NC(CC(=O)OC(C)(C)C)c1nnc(C)n1-2 (centres unmarked)", "target or system": "Htr1b (Rattus norvegicus, UniProt P28564)", "test": "ligand displacement, radioligand", "setting": "1 µM", "endpoint": "remaining binding", "result": "104%"}
{"note": "For quick reference, copied from above:"}
{"Compound": "Nc1ccc(/C=C/C(=O)N2CCc3c(oc4c(-c5ccc(F)cc5)cc(-c5ccc(C(=O)N6CCC(F)(F)CC6)cn5)cc34)C2)cn1", "target or system": "MARK3 (Homo sapiens, UniProt P27448)", "test": "binding, competition with immobilised ligand", "setting": "1 µM", "endpoint": "remaining binding", "result": "99%"}
{"Compound": "CS(C)(=O)=Nc1ccc(-c2ccc(-c3nc4cc(O[C@@H]5CO[C@H]6[C@@H]5OC[C@H]6O)[nH]c4cc3F)cc2)cc1", "target or system": "PRKCQ (Homo sapiens, UniProt Q04759)", "test": "enzyme activity, inhibitor", "setting": "10 µM", "endpoint": "inhibition", "result": "14%"}
